Results gathered from unrelated publications.
Every numbered part comes from another study and shows a few of its results, in no order. Substitutions count along the parent as printed.

Series 1
Target: Centromere-binding protein 1, full length, N-terminal tag (CBF1, Saccharomyces cerevisiae, UniProt P17106, residues 1-351)
Sequence of UniProt P17106 (whole entry, looked up): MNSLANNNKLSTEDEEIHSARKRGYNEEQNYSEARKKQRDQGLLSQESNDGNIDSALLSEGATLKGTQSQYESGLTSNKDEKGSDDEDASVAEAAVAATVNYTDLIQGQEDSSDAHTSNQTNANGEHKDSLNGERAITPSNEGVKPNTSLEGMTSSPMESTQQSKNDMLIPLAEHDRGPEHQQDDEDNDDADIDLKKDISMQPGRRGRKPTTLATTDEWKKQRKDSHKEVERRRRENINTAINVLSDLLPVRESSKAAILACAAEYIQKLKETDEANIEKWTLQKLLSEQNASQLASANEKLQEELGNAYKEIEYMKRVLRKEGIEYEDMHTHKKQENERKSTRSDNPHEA
Method: protein-binding microarray
Form: double-stranded DNA, one strand shown
Medium: in vitro
Concentration: 0.8 µM
Notes: whole 60-bp probe, no competitor
Reading: higher = stronger binding
`GAAAGGAGGGACCTCCACGTGCCAAACGACACTTAGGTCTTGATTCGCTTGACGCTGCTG` has a fluorescence intensity of 2140 a.u.
With `GAACTCTCCCCCCCACACGTGATAGCCTTTCTTTAGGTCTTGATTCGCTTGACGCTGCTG` the fluorescence intensity was 3830 a.u.
For `TGTACGAAGCTATGTCACGTACCTATAGTAGTTAGGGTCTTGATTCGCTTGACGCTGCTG`, the fluorescence intensity was 766 a.u.
The fluorescence intensity of `CTAACGCTTTTTCGTGAGGTGTACTACCATTCATTCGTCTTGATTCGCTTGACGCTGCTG` is reported as 539 a.u.
`CCTAACTACTATAATATTATTAAATAGCTTCGTACAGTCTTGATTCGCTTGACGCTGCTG` has a fluorescence intensity of 529 a.u.
With `CTAAATGCACGTGATATGCACGTGGGAGCTGGGTTCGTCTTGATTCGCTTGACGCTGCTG` the fluorescence intensity was 20600 a.u.
`TGTACGAAGCTATGAAACGTGGATATAGTAGTTAGGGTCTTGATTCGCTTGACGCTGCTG` gave a fluorescence intensity of 518 a.u.
For `GAATCTCGTCAAGATCAGCAGAAACACACACACTAGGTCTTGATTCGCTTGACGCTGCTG`, the fluorescence intensity was 549 a.u.
With `CTAAGCTAAGAGAGTCACGGGACTAAAAGGTAATTCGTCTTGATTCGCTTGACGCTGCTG` the fluorescence intensity was 5600 a.u.
The fluorescence intensity of `CTAACTTGATCTTCCCACGTTCACATAGCCTCCTTCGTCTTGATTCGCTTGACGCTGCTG` is reported as 539 a.u.
`CTAATAGAGGCAGGTGGTGTTTCCTCGTGTCCGTTCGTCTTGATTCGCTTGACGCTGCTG` has a fluorescence intensity of 621 a.u.
The fluorescence intensity of `CTAGACACCGAGCGGCACGTACTATATTATCCGTTCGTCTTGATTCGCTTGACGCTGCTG` is reported as 542 a.u.
With `CTAAAAACTTTTATCCACATGCAGTAAAAATAATTCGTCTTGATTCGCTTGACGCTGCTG` the fluorescence intensity was 689 a.u.

Series 2
Target: Sal-like protein 4, full length isoform A (SALL4, Homo sapiens, UniProt Q9UJQ4, residues 1-1053)
Sequence of UniProt Q9UJQ4 (whole entry, looked up): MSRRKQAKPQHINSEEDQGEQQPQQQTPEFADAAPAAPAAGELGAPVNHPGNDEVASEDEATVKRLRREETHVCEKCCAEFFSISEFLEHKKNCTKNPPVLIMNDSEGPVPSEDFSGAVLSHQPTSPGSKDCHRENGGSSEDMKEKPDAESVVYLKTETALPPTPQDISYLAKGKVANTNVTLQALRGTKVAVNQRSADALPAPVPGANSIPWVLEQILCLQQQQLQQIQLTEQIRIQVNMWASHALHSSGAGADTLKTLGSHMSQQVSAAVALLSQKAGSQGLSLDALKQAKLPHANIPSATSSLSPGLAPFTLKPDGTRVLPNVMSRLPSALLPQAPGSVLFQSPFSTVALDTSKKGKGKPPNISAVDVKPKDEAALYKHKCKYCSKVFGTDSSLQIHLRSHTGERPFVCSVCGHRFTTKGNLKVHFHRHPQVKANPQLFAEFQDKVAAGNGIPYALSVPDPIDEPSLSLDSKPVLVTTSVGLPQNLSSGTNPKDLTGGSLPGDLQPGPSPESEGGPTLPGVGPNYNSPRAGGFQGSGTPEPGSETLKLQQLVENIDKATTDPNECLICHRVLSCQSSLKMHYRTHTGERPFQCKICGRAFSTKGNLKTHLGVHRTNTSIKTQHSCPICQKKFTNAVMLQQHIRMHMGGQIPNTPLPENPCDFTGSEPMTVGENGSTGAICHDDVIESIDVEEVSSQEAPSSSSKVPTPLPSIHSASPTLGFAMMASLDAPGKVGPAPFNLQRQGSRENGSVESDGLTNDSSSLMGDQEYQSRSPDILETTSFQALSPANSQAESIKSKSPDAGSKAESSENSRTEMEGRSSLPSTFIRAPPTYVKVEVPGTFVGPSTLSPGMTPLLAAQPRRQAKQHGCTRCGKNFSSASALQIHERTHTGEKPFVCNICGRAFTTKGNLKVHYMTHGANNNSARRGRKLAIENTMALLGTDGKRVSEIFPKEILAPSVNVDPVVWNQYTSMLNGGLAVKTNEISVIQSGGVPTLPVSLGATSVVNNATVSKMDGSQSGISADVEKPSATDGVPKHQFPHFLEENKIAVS
Method: universal PBM
Form: double-stranded DNA, one strand shown
Medium: in vitro
Concentration: 600 nM
Notes: 8-mer, flanks averaged, mean of replicates
Reading: higher = stronger binding
`GCGTTCAA` gave an E-score of -0.0425.
`CACTGTCC` gave an E-score of -0.12.
With `ACGACCCC` the E-score was -0.321.
The E-score of `CACCTATA` is reported as 0.174.
With `TAACCGTA` the E-score was 0.149.
With `TGGCGACA` the E-score was -0.0289.
With `ATAGTATG` the E-score was 0.292.
The E-score of `TGCTGGAA` is reported as -0.00597.

Series 3
Target: CCNF, cyclin fold, Cln2 fusion (human)
Method: yeast growth competition, sequencing
Medium: yeast
Notes: strong parent motif
Baseline: not given
Reading: higher = stronger binding
Starting sequence: SAMHD1 docking peptide (human); ASKSRVQLFKDDP
`V6T`: “normalised enrichment score” 0.958.
Under “normalised enrichment score”, `K3H` is recorded as 1.61.
`Q7K` — result for “normalised enrichment score”: 0.76.
`Q7H` — result for “normalised enrichment score”: 0.631.
`K10D`: “normalised enrichment score” -0.0454.
For `S2M`, “normalised enrichment score” read 1.69.
`L8N` — result for “normalised enrichment score”: 0.366.
`D12N` — result for “normalised enrichment score”: 0.975.
`Q7V`: “normalised enrichment score” 0.383.
`V6S`: “normalised enrichment score” -0.3.
For `R5I`, “normalised enrichment score” read 0.577.
`D12K` — result for “normalised enrichment score”: 0.98.
`V6Q` — result for “normalised enrichment score”: -0.254.

Single results of other studies
The fold induction of `PhoQ, residues 284 288 289 292 302 303 AGCYAI` is reported as 4.2 (PhoP, residues 12 14 15 18 19 NQGLL (Escherichia coli, UniProt P23836); Sort-seq, measured: YFP reporter; E. coli; PhoQ-PhoP variant library, with: 10 µM Mg2+; baseline: high Mg2+ state, higher = stronger signaling).

Excerpt of the above (series 1):
`TGTACGAAGCTATGAAACGTGGATATAGTAGTTAGGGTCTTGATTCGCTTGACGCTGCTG` gave a fluorescence intensity of 518 a.u.
With `CTAAAAACTTTTATCCACATGCAGTAAAAATAATTCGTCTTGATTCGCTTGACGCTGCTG` the fluorescence intensity was 689 a.u.
With `CTAAATGCACGTGATATGCACGTGGGAGCTGGGTTCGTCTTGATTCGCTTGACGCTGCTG` the fluorescence intensity was 20600 a.u.
